Published values gathered from unrelated publications.
Numbered parts are unrelated; each lists some results of a single study. “And” joins repeats or separate records; there may be more than shown.
Chain of UniProt Q9NWZ3 (whole entry, looked up): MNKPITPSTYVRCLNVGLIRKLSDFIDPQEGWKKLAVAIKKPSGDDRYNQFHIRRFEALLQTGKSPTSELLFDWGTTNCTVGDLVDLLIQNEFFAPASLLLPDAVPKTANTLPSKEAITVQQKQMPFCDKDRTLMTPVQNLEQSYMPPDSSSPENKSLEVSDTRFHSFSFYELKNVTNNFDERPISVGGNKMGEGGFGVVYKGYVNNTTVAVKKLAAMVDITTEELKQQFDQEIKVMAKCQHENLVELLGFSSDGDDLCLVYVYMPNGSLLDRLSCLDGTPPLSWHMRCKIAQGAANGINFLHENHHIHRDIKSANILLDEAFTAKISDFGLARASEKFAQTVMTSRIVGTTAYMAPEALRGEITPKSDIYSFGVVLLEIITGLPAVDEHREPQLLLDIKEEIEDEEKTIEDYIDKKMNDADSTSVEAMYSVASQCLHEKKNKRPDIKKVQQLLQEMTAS
Chain of UniProt P07948 (whole entry, looked up): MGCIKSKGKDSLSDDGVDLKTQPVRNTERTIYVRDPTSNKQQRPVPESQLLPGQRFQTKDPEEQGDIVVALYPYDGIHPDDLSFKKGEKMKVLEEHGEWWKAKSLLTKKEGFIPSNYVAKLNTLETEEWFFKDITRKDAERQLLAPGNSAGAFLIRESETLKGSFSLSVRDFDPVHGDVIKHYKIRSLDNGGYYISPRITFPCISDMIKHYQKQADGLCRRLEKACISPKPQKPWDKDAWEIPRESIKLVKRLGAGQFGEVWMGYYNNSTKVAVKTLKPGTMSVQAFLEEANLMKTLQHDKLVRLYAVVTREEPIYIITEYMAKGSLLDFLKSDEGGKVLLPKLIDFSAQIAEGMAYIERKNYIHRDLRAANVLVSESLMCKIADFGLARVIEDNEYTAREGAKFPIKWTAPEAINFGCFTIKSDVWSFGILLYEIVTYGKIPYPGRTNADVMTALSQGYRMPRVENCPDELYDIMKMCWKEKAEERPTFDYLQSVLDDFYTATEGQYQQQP
Chain of UniProt Q9NYY3 (whole entry, looked up): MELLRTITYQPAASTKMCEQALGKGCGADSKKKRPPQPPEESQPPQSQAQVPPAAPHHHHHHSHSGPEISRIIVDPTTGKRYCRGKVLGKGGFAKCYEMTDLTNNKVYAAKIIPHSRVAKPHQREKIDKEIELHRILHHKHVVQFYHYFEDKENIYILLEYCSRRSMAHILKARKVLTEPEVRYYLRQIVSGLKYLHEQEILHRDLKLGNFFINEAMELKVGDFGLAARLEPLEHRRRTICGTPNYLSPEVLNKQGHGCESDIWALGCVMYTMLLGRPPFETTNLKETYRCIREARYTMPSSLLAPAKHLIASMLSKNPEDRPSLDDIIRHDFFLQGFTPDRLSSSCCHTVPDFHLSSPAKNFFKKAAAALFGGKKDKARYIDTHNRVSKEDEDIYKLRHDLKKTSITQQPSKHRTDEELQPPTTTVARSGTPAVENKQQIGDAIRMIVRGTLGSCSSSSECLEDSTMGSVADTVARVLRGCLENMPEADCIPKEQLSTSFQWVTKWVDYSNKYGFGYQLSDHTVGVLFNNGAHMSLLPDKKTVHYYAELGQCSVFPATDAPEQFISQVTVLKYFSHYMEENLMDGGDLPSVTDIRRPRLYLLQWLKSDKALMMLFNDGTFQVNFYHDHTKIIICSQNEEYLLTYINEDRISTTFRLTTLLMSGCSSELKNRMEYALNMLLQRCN
Chain of UniProt P53778 (whole entry, looked up): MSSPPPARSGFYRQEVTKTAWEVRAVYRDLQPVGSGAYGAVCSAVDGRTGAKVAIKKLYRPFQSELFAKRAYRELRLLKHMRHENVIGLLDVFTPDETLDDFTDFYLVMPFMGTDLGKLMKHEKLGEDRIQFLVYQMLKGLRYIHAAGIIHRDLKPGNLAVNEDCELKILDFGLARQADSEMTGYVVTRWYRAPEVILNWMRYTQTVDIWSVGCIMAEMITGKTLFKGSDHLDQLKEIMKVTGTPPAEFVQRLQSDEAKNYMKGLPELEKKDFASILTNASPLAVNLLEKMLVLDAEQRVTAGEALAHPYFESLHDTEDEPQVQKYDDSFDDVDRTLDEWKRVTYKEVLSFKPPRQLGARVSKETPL
Chain of UniProt Q12851 (whole entry, looked up): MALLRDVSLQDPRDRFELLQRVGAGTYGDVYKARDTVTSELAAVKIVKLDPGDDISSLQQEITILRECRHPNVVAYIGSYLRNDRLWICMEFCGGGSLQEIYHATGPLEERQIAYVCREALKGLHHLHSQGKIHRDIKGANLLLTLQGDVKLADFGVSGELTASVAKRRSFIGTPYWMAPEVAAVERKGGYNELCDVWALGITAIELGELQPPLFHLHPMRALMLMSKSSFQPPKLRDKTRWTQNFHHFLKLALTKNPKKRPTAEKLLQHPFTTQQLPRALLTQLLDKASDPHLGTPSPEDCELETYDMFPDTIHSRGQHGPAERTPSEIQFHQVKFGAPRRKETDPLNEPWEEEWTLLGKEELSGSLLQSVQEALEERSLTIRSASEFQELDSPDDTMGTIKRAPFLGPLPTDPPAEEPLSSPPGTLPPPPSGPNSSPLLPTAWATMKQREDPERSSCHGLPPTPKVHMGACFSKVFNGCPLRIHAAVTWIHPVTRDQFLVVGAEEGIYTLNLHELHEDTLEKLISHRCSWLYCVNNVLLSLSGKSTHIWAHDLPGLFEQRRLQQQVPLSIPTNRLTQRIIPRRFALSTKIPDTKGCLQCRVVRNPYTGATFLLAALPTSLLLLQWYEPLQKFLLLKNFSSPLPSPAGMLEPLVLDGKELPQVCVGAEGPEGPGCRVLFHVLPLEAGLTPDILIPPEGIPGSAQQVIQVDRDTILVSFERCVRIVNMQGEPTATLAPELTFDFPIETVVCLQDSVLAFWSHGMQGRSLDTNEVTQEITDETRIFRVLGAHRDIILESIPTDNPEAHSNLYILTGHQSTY
Chain of UniProt O15264 (whole entry, looked up): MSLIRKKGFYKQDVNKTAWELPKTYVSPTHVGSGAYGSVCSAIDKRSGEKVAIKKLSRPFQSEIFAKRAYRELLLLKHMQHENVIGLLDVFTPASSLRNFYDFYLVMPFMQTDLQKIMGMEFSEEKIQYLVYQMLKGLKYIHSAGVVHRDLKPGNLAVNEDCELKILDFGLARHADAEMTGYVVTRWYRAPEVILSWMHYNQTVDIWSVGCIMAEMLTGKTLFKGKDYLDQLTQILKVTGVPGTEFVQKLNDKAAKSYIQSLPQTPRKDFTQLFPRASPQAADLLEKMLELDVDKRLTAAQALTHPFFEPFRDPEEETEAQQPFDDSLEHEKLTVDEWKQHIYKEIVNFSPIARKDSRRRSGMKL
Chain of UniProt Q02779 (whole entry, looked up): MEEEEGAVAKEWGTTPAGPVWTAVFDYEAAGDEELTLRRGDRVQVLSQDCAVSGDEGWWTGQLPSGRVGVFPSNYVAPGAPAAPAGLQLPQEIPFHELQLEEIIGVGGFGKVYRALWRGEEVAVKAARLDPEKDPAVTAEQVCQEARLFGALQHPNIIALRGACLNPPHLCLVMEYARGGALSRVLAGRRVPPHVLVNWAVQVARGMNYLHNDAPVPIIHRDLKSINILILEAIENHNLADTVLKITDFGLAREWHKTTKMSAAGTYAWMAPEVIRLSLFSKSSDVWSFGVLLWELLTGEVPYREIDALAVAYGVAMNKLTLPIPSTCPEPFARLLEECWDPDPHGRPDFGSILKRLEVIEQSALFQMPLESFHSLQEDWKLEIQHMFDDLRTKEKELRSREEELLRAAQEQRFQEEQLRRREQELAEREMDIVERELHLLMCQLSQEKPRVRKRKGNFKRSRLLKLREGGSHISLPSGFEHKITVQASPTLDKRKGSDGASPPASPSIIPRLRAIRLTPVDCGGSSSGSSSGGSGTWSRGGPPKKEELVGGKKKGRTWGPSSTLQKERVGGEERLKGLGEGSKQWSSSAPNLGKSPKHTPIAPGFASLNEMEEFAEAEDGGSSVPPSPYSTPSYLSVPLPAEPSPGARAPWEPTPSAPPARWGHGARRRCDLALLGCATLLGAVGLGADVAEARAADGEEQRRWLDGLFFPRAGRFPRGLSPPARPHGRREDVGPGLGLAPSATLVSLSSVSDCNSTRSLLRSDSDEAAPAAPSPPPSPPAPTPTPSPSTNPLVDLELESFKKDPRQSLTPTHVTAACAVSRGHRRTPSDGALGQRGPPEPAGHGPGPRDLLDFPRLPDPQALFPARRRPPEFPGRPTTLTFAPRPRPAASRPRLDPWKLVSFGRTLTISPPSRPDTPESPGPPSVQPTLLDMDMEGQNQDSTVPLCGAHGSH
Chain of UniProt P41743 (whole entry, looked up): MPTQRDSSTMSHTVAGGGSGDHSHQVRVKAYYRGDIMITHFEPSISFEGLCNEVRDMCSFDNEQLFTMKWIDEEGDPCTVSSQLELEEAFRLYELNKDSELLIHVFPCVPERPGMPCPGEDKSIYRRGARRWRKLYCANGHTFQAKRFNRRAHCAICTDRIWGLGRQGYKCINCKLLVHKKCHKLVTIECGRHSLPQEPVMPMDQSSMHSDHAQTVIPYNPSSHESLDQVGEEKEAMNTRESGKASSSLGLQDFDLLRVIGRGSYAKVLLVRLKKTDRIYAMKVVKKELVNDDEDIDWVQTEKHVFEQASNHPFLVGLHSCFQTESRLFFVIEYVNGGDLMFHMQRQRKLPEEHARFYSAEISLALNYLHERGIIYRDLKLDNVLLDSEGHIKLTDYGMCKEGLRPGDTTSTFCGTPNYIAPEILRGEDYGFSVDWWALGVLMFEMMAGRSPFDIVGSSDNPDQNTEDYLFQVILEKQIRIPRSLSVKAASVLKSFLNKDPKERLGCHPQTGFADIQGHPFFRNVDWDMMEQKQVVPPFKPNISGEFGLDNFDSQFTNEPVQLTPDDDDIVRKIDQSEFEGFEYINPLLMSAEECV

Study 1 — Structure (SMILES): O[C@]1(C(F)(F)F)CCCC[C@H]1Nc1ccc(F)cc1; read-out: binding; method: radioligand binding; concentration: 10 µM
| target | inhibition [%] |
| --- | --- |
| HTR2B (Homo sapiens, UniProt P41595) | -14.9 |
| HTR1D (Homo sapiens, UniProt P28221) | -14.3 |
| HTR3A (Homo sapiens, UniProt P46098) | 39 |

Study 2 — cell line: mouse MPNST tumor cells; method: high-content nuclear imaging; item: cell number; concentration: 10 µM; time: 12 h; setting: mean of 2 replicates; reference: plate mean; reading: higher = more cells
| Compound | nuclei count |
| --- | --- |
| Cc1cc(C)c(N(Cc2ccccc2)S(=O)(=O)c2ccc(OCCNC(=O)c3cc4ccccc4o3)cc2)c(C(=O)NO)c1 | 1.23 z-score |
| CCOC(=O)NNc1nncc2ccccc12 | 2.91 z-score |
| COc1ccc2c3c1O[C@H]1C[C@@H](O)C=C[C@@]31CCN(C)C2 | -0.151 z-score and 0.724 z-score |
| COc1ccc(CC2c3cc(OC)c(OC)cc3CC[N+]2(C)CCC(=O)OCCCCCOC(=O)CC[N+]2(C)CCc3cc(OC)c(OC)cc3C2Cc2ccc(OC)c(OC)c2)cc1OC (stereo not drawn) | -2.1 z-score |
| C[C@]12CC[C@@H]3c4ccc(O)cc4CC[C@H]3[C@@H]1CC[C@@H]2O | 0.00434 z-score |
| CC1(C)CCC[C@]2(C)[C@@H](C=O)C(C=O)=CC[C@@H]12 | -1.14 z-score |
| CNCCC(Oc1ccc(C(F)(F)F)cc1)c1ccccc1 (stereo not drawn) | -3.73 z-score |
| C=CCSCC1Nc2cc(Cl)c(S(N)(=O)=O)cc2S(=O)(=O)N1 (stereo not drawn) | 1.18 z-score |
| O=C(NNc1ccccc1)c1ccncc1 | 3.42 z-score |
| O=C(O)C1CN(Cc2ccc(-c3nc4cc(Cc5ccccc5F)ccc4s3)c(F)c2)C1 | 0.515 z-score |
| Oc1c(Cl)cc(Cl)c2cccnc12 | 0.311 z-score |

Study 3 — organism: Cryptosporidium parvum; method: time-kill; cell line: HCT-8; strain: nanoluciferase-expressing; reading: higher = more parasites
Compound: CN(C(=O)c1ccn2ncc(-c3ccc(C(N)=O)cc3)c2c1)c1ccc(C#N)cn1
| setting | parasite luminescence |
| --- | --- |
| 0.7407 µM, 24 h | 63200 RLU and 81100 RLU |
| 2.222 µM, 72 h | 20400 RLU and 20000 RLU |
| 0.2469 µM, 4 h | 78000 RLU and 68500 RLU |
| 2.222 µM, 24 h | 83400 RLU and 108000 RLU |
| 0.00305 µM, 24 h | 233000 RLU and 218000 RLU |
| 20 µM, 8 h | 91700 RLU and 78300 RLU |

Study 4 — SMILES: CC(C)N(CCC(=O)c1ccc2ccccc2c1)Cc1ccccc1; read-out: enzyme activity; action: inhibitor; concentration: 0.5 µM; reference: control
| target | remaining activity |
| --- | --- |
| CHEK1 (Homo sapiens, UniProt O14757) | 106% |
| PLK2 (Homo sapiens, UniProt Q9NYY3) | 97% |
| AKT3 (Homo sapiens, UniProt Q9Y243) | 95.8% |
| MAP3K10 (Homo sapiens, UniProt Q02779) | 92.6% |
| MAPK13 (Homo sapiens, UniProt O15264) | 96.2% |
| LYN (Homo sapiens, UniProt P07948) | 98.8% |
| MAP4K2 (Homo sapiens, UniProt Q12851) | 98.3% |
| PRKCD (Homo sapiens, UniProt Q05655) | 94% |
| EPHA5 (Homo sapiens, UniProt P54756) | 118% |
| CSNK2A1 (Homo sapiens, UniProt P68400) | 98.1% |
| NEK4 (Homo sapiens, UniProt P51957) | 95.7% |
| MKNK2 (Homo sapiens, UniProt Q9HBH9) | 100% |
| STK38 (Homo sapiens, UniProt Q15208) | 100% |
| WNK2 (Homo sapiens, UniProt Q9Y3S1) | 107% |
| IRAK4 (Homo sapiens, UniProt Q9NWZ3) | 103% |
| Cyclin-dependent kinase 9, with cyclin T1 (CDK9, Homo sapiens, UniProt P50750) | 96.4% |
| KIT (Homo sapiens, UniProt P10721) | 86.5% |
| MAPK12 (Homo sapiens, UniProt P53778) | 96.2% |
| MAP2K6 (Homo sapiens, UniProt P52564) | 93.2% |
| LRRK2 (Homo sapiens, UniProt Q5S007) | 98.2% |
| PRKG1 (Homo sapiens, UniProt Q13976) | 101% |
| CSNK1A1 (Homo sapiens, UniProt P48729) | 88.4% |
| PRKCI (Homo sapiens, UniProt P41743) | 97.1% |
| BTK (Homo sapiens, UniProt Q06187) | 87.5% |

Study 5 — organism: Plasmodium berghei; action: inhibitor; cell line: Huh-7; strain: liver stage; concentration: 10 µM; time: 24 h; reference: untreated control
| SMILES | infection rate [%] |
| --- | --- |
| CCOc1ccc2ccccc2c1C(=O)N[C@@H]1C(=O)N2[C@@H]1SC(C)(C)[C@@H]2C(=O)O | 96.5 |
| COc1ccc2c(c1)c(CC(=O)O)c(C)n2C(=O)c1ccc(Cl)cc1 | 74.1 |
| COc1cccc(OC)c1C(=O)N[C@@H]1C(=O)N2[C@@H]1SC(C)(C)[C@@H]2C(=O)O | 95.3 |
| CCC[C@@H]1C[C@@H](C(=O)N[C@@H]([C@H]2O[C@H](SC)[C@H](O)[C@@H](O)[C@H]2O)[C@@H](C)O)N(C)C1 | 106 |
| CN1CCOC(c2ccccc2)c2ccccc2C1 (stereo not drawn) | 90 |
| CC(=O)N1CCN(c2ccc(OC[C@@H]3CO[C@@](Cn4ccnc4)(c4ccc(Cl)cc4Cl)O3)cc2)CC1 (racemic) | 47.5 |
| CC1(C)O[C@@H]2C[C@H]3[C@@H]4CCC5=CC(=O)CC[C@]5(C)[C@@]4(F)[C@@H](O)C[C@]3(C)[C@]2(C(=O)CCl)O1 | 118 |

Excerpt of the above (study 4):
| target | remaining activity |
| --- | --- |
| WNK2 (Homo sapiens, UniProt Q9Y3S1) | 107% |
| IRAK4 (Homo sapiens, UniProt Q9NWZ3) | 103% |
| Cyclin-dependent kinase 9, with cyclin T1 (CDK9, Homo sapiens, UniProt P50750) | 96.4% |
| KIT (Homo sapiens, UniProt P10721) | 86.5% |
| MAPK12 (Homo sapiens, UniProt P53778) | 96.2% |
| MAP2K6 (Homo sapiens, UniProt P52564) | 93.2% |
| LRRK2 (Homo sapiens, UniProt Q5S007) | 98.2% |
| PRKG1 (Homo sapiens, UniProt Q13976) | 101% |
| CSNK1A1 (Homo sapiens, UniProt P48729) | 88.4% |
